Experimental data gathered from unrelated publications.
Compare with care: the assays were run in different laboratories. ± marks the error that the study gave.
Beta-lactamase CTX-M-14: Beta-lactamase CTX-M-14 (Escherichia coli, UniProt Q9L5C7)
ALB: Albumin (ALB, Bos taurus, UniProt P02769)
Sequence of UniProt P02769 (whole entry, looked up): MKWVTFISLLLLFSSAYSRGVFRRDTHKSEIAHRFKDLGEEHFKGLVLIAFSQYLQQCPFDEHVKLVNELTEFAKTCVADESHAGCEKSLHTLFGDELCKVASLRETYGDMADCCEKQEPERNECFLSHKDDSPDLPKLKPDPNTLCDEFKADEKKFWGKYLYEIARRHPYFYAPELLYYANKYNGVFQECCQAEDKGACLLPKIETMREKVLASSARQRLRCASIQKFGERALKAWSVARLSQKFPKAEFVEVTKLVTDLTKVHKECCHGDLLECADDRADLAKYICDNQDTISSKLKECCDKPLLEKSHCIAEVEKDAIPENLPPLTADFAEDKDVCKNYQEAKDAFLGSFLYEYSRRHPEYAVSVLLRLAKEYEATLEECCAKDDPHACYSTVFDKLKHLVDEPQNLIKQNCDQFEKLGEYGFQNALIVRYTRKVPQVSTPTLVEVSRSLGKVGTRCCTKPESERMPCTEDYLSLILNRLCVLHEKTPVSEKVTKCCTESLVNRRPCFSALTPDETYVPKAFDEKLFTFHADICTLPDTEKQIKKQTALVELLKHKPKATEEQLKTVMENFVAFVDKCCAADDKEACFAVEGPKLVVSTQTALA
Sequence of UniProt O43189 (whole entry, unmodified, looked up): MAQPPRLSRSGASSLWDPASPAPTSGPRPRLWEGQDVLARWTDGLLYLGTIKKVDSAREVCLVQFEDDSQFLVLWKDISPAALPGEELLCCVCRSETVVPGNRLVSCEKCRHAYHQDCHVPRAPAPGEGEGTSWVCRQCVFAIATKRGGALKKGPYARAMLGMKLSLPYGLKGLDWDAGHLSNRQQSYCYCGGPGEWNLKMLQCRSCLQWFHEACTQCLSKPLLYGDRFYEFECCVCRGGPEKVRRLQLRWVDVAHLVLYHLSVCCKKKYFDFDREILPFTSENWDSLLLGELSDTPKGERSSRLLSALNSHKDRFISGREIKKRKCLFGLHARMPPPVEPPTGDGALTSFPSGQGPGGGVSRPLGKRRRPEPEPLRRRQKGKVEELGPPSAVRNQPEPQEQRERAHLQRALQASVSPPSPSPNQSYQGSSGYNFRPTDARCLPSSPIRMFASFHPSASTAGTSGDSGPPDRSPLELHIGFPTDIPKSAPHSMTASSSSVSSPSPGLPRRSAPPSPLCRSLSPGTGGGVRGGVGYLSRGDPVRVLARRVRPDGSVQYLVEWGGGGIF
Sequence of UniProt O43570 (whole entry, looked up): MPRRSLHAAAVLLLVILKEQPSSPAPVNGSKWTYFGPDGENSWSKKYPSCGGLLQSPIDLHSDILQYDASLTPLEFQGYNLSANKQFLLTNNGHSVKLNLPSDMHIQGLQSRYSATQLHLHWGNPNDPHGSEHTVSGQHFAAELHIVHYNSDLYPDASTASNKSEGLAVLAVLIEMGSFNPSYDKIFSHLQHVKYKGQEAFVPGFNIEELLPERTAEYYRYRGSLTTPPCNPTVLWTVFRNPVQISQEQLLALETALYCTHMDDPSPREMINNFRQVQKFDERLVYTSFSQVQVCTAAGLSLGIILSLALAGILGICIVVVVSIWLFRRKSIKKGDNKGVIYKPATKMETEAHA
Sequence of UniProt Q13148 (whole entry, looked up): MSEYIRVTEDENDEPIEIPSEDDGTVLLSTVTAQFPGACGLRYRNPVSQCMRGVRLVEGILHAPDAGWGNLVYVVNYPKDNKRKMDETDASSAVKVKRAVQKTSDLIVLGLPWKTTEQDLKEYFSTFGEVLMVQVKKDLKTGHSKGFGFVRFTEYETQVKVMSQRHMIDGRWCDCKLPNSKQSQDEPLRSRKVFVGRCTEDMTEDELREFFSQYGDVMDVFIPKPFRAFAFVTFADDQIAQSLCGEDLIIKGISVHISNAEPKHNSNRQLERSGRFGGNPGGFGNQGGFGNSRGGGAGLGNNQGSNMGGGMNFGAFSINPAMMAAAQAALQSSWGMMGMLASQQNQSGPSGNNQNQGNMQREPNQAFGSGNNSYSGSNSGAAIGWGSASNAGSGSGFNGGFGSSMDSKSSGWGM
Sequence of UniProt Q12884 (whole entry, looked up): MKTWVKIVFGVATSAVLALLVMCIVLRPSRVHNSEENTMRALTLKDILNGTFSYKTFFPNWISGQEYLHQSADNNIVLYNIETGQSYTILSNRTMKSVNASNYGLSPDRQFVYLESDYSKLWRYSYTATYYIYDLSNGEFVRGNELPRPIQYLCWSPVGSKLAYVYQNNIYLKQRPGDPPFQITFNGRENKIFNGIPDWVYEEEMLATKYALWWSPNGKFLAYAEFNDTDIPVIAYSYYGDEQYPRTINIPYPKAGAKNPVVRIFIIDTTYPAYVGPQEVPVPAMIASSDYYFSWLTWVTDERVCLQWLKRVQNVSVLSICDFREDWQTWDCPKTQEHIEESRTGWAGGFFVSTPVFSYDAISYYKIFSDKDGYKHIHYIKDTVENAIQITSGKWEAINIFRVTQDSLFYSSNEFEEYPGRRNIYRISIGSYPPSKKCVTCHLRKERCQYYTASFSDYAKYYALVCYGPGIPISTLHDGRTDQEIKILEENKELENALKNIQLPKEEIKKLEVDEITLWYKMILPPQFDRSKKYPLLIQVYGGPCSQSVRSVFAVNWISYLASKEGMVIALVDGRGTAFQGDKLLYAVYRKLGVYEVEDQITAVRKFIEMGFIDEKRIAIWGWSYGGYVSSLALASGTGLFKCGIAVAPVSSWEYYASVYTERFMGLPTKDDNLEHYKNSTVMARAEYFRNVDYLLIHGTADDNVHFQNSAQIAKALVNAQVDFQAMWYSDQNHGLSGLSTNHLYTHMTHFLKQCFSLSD
Sequence of UniProt Q00535 (whole entry, looked up): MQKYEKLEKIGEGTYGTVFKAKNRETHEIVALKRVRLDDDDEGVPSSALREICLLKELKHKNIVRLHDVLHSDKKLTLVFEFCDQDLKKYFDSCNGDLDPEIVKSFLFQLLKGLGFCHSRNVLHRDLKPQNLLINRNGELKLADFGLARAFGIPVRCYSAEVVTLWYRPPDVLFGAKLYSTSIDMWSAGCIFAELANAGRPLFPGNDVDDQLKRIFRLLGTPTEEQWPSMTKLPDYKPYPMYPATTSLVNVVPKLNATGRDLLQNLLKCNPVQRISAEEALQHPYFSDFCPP
Sequence of UniProt Q9UHM6 (whole entry, looked up): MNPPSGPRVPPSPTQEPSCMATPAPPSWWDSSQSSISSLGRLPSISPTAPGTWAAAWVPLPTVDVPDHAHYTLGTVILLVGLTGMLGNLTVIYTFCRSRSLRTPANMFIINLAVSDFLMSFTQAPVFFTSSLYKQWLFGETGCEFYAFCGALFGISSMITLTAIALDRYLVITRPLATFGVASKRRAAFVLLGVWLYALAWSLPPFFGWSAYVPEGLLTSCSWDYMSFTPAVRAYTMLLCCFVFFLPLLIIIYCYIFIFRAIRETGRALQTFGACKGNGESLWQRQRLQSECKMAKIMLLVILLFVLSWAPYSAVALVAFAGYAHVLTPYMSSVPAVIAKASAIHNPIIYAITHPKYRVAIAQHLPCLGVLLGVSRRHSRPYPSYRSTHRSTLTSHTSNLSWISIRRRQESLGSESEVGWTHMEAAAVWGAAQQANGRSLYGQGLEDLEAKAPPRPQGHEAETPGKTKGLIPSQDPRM
Sequence of UniProt P06730 (whole entry, looked up): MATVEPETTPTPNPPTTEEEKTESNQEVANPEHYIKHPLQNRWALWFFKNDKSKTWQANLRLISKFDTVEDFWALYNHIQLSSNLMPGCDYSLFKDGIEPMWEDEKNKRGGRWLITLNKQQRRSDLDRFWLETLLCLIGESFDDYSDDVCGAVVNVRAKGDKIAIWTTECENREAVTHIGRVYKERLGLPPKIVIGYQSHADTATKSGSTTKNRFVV
Sequence of UniProt Q9HB29 (whole entry, looked up): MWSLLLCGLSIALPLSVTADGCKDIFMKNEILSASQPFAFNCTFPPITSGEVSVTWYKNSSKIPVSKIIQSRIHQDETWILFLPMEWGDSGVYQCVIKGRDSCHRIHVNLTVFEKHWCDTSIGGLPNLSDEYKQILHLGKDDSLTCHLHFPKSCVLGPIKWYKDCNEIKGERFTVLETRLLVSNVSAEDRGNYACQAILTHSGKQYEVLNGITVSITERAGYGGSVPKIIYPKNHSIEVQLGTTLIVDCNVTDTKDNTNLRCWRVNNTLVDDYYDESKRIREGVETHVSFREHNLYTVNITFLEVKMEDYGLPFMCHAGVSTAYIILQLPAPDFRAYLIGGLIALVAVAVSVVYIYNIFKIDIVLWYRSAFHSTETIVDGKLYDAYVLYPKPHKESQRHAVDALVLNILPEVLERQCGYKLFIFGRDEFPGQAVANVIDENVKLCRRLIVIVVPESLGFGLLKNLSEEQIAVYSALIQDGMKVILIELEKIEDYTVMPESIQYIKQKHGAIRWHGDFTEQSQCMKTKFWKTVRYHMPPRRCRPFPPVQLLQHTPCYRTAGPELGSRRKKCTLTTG

O=C(Nc1cccc(-c2nn[nH]n2)c1)c1cc(-n2cccn2)cc(C(F)(F)F)c1
Kd (Beta-lactamase CTX-M-14; surface plasmon resonance; 25 °C): 19400 ± 300 nM

CC(C)[C@H](NC(=O)CNC(=O)CNC(=O)[C@@H](NC(=O)[C@H](C)NC(=O)[C@@H]1CCCN1C(=O)[C@H](C)NC(=O)[C@@H](N)CO)[C@@H](C)O)C(=O)N[C@@H](CCCC[N+](C)(C)C)C(=O)N[C@@H](CCCCN)C(=O)N1CCC[C@H]1C(=O)N[C@@H](Cc1c[nH]cn1)C(=O)N[C@@H](CCCNC(=N)N)C(=O)N[C@@H](Cc1ccc(O)cc1)C(=O)N[C@@H](CCCNC(=N)N)C(=O)N1CCC[C@H]1C(=O)O
Kd (PHD finger protein 1, Tudor domain E66K (Homo sapiens, UniProt O43189, E66K); binding, isothermal titration calorimetry; added: histone H3 peptide): 22800 ± 2000 nM

O=P(O)(O)O[C@@H]1[C@@H](O)[C@@H](O[C@@H]2COC[C@@H]2OP(=O)(O)O)O[C@H](CO)[C@H]1OP(=O)(O)O
Kd (Inositol 1,4,5-trisphosphate-gated calcium channel ITPR1, N-terminal region (Itpr1, Rattus norvegicus, UniProt P29994, del318-332); [3H]IP3 competition binding; N-terminal fragment): 1.19 nM

[3H]C1CCN(S(=O)(=O)c2cc(Cl)c(OC)cc2Cl)CC1[3H] (centres unmarked)
Kd (Melanopsin (OPN4, Homo sapiens, UniProt Q9UHM6); binding, saturation binding; membranes of light-exposed CHO-Opn4 cells): 0.28 nM

CC(C)C[C@H](NC(=O)[C@@H]1CCCN1C(=O)[C@H](CCCCN)NC(=O)[C@H](CCCCN(CCc1ccccc1)C(C)C)NC(=O)[C@@H](NC(=O)CNC(=O)CN)C(C)C)C(=O)N[C@@H](CCCNC(=N)N)C(N)=O
Kd (PHD finger protein 1, Tudor domain F65A (Homo sapiens, UniProt O43189, F65A); binding, isothermal titration calorimetry; Tudor domain): 13700 ± 1300 nM

Cc1ccc(NC(=O)c2c(C)oc3ccc(O)c(CN4CCCCCC4)c23)cc1
Kd (Bcl2 G-quadruplex DNA; surface plasmon resonance): 14000 nM

CC(=O)NCCN(CC(=O)NCCN(CC(=O)NCCN(CC(=O)NCCC(N)=O)C(=O)C[C@@H](N)Cc1ccccc1)C(=O)C[C@@H](N)Cc1ccccc1)C(=O)C[C@@H](N)CCCNC(=N)N
Kd (HIV-1 TAR RNA (18-44); fluorescence; 25 °C, added: 100-fold excess natural tRNA): 600 ± 100 nM

CO[C@@H]1O[C@H](CO)[C@@H](O[C@H]2O[C@H](CO)[C@@H](OP(=O)(O)O)[C@H](OP(=O)(O)O)[C@H]2O)[C@H]1OP(=O)(O)O
Kd (Inositol 1,4,5-trisphosphate-gated calcium channel ITPR1, N-terminal region (Itpr1, Rattus norvegicus, UniProt P29994, del318-332/R504Q); [3H]IP3 competition binding; N-terminal fragment R504Q): 40.5 nM

N#Cc1cnc2sc(C(=O)O)cc2c1N1CCc2[nH]nc(C(=O)N[C@@H](CC(=O)NCCOCCN3CCOCC3)c3cccc(Br)c3)c2C1
Kd (Interleukin-1 receptor-like 2, D1-D2 domains (IL1RL2, Homo sapiens, UniProt Q9HB29); SPR; IL-36R D1-D2 domains): 77 nM

CC(=O)NCCN(CC(=O)NCCN(CC(=O)NCCN(CC(=O)NCCC(N)=O)C(=O)C[C@@H](N)CCCNC(=N)N)C(=O)C[C@@H](N)Cc1ccccc1)C(=O)C[C@@H](N)Cc1ccccc1
Kd (HIV-1 TAR RNA (18-44); fluorescence; 25 °C, added: 100-fold excess natural tRNA): 260 ± 120 nM

CC(C)C[C@H](NC(=O)[C@@H](NC(=O)[C@@H]1CCCN1C(=O)[C@@H]1CCCN1C(=O)[C@@H]1CCCN1C(=O)[C@H](CC(N)=O)NC(=O)[C@@H]1CCCN1C(=O)[C@H](C)NC(=O)[C@@H]1CCCN1C(=O)CNC(=O)[C@H](CCCCN)NC(=O)[C@@H](N)[C@@H](C)O)C(C)C)C(=O)N[C@@H](CCCCN)C(=O)N[C@H](C(=O)O)C(C)C
Kd (PACSIN1 SH3 domain, chicken; binding; pH 7): 51600 ± 7600 nM

CC(=O)NCCN(CCC(=O)NCCN(CCC(=O)NCCN(CCC(=O)NCCC(N)=O)C(=O)[C@@H](N)CCCNC(=N)N)C(=O)[C@@H](N)Cc1ccccc1)C(=O)[C@@H](N)Cc1ccccc1
Kd (HIV-1 TAR RNA (18-44); fluorescence; 25 °C, added: 100-fold excess 15-mer duplex DNA): 390 ± 40 nM

CCCCCCCC(=O)N[C@@H](CCN)C(=O)N[C@H](C(=O)N[C@@H](CCN)C(=O)N[C@H]1CCNC(=O)[C@H]([C@@H](C)O)NC(=O)[C@H](CCN)NC(=O)[C@H](CC(N)=O)NC(=O)[C@H](CC(C)C)NC(=O)[C@@H](Cc2ccccc2)NC(=O)[C@H](CCN)NC1=O)[C@@H](C)O
Kd (anti-polymyxin B mouse IgM mAb; SPR; 25 °C): > 25000 nM

CCCS(=O)(=O)N1CCN(Cc2ccc(NC(=O)c3ccc(-c4cc(NC(=O)C5CC5)ccc4OC(F)(F)F)cc3)cc2)CC1
Kd (Genome polyprotein, NS5A domain 1 (Hepatitis C virus genotype 1b, UniProt Q9WMX2); microscale thermophoresis; NS5A residues 33-202): 30 ± 11 nM

CC(C)C[C@H](NC(=O)[C@H](CCCCN)NC(=O)[C@H](CCCCN)NC(=O)[C@H](C)NC(=O)[C@H](CCCCN)NC(=O)[C@H](CCCCN)NC(=O)[C@@H]1CCCN1C(=O)[C@@H](NC(=O)[C@H](CCCCN)NC(=O)[C@@H]1CCCN1)[C@@H](C)O)C(=O)O
Kd (Cyclin-dependent kinase 5, with p25 (CDK5, Homo sapiens, UniProt Q00535); substrate; 1.3 mM free Mg2+): 11000 ± 800 nM

O=C(Nc1cccc(-c2nn[nH]n2)c1)c1cc(-c2cccnc2)cc(C(F)(F)F)c1
Kd (Beta-lactamase CTX-M-14; surface plasmon resonance; 25 °C): 43500 ± 900 nM

CCCCCCCCCCCCCCCC(=O)Nc1ccccc1SSc1ccccc1NC(=O)CCCCCCCCCCCCCCC
Kd (ALB; binding, fluorescence quenching, no site marker; pH 7.4, 298 K): 5590 nM

O=C(Nc1cccc(-c2nn[nH]n2)c1)c1cc(-c2cc[nH]c2)cc(C(F)(F)F)c1
Kd (Beta-lactamase CTX-M-14; surface plasmon resonance; 25 °C): 17600 ± 700 nM

CCCCCCCCCCCC(=O)Nc1ccccc1SSc1ccccc1NC(=O)CCCCCCCCCCC
Kd (ALB; binding, fluorescence quenching; pH 7.4, 313 K): 358000 nM

CC(=O)NCCN(CC(=O)NCCN(CC(=O)NCCN(CC(=O)NCCC(N)=O)C(=O)C[C@@H](N)CCCNC(=N)N)C(=O)C[C@@H](N)CCCNC(=N)N)C(=O)C[C@@H](N)Cc1ccccc1
Kd (HIV-1 TAR RNA (18-44); fluorescence; 25 °C, added: 100-fold excess 15-mer duplex DNA): 270 ± 40 nM

CCCCCCCC(=O)N[C@@H](CCN)C(=O)N[C@H](C(=O)N[C@@H](CCN)C(=O)N[C@H]1CCNC(=O)[C@H]([C@@H](C)O)NC(=O)[C@H](CCN)NC(=O)[C@H](CCN)NC(=O)[C@H](CC(C)C)NC(=O)[C@@H](Cc2ccccc2)NC(=O)[C@H]([C@@H](C)O)NC1=O)[C@@H](C)O
Kd (anti-polymyxin B mouse IgM mAb; SPR; 25 °C): > 25000 nM

CC1(C)CC(=O)C2=C(C1)Oc1ncnc(Nc3ccc([N+](=O)[O-])cc3)c1C2c1ccccc1F (centres unmarked)
Kd (ALB; absorption titration; pH 7.2, 25 °C): 6100 nM

N#C[C@@H]1CC(F)(F)CN1C(=O)CNC(=O)c1ccnc2ccc(OCCCN3CCN(C(=O)CN4CCN(CC(=O)O)CCN(CC(=O)O)CC4)CC3)cc12
Kd (FAP (Homo sapiens, UniProt Q12884); binding, SPR): 0.011 nM

CCCCCCCC(=O)N[C@@H](CCN)C(=O)N[C@H](C(=O)N[C@@H](CCN)C(=O)N[C@H]1CCNC(=O)[C@H]([C@@H](C)O)NC(=O)[C@H](CCN)NC(=O)[C@H](CCN)NC(=O)[C@H](CC(C)C)NC(=O)[C@@H](Cc2ccccc2)NC(=O)[C@H](C)NC1=O)[C@@H](C)O
Kd (anti-polymyxin B mouse IgM mAb; SPR; 25 °C): > 25000 nM

C#CC[C@H](NC(=O)CNC(=O)[C@H](CO)NC(=O)[C@@H]1CCCCNC(=O)CCCC(=O)N[C@@H](CCSC)C(=O)N[C@@H](Cc2ccccc2)C(=O)N2CCC[C@H]2C(=O)N[C@@H](Cc2c[nH]cn2)C(=O)N[C@@H](CCCNC(=N)N)C(=O)N[C@@H](C(C)C)C(=O)N[C@@H]([C@@H](C)O)C(=O)N[C@@H](C)C(=O)N(C)[C@@H](C)C(=O)N1)C(=O)O
Kd (Microtubule-associated protein 1 light chain 3 alpha (Homo sapiens, UniProt Q9H492); fluorescence polarization): 355 ± 84 nM

CC(=O)N[C@@H](CCCCN)C(=O)N[C@@H](CCCCN)C(=O)N[C@@H](CCCNC(=N)N)C(=O)N[C@@H](Cc1ccc(O)cc1)C(=O)N[C@@H](CO)C(=O)N[C@@H](CCCNC(=N)N)C(=O)N[C@@]1(C)CCCC=CCCC[C@@](C)(C(=O)N[C@@H](Cc2ccccc2)C(N)=O)NC(=O)[C@H](CC(C)C)NC(=O)[C@H](CC(C)C)NC(=O)[C@H](Cc2ccccc2)NC1=O
Kd (EIF4E (Homo sapiens, UniProt P06730); ligand displacement, FP; pH 7.4): 558 nM

O=C(Nc1cccc(-c2nn[nH]n2)c1)c1cc(-n2cnnn2)cc(C(F)(F)F)c1
Kd (Beta-lactamase CTX-M-14; surface plasmon resonance; 25 °C): 29800 ± 1200 nM

CC(=O)NCCN(CC(=O)NCCN(CC(=O)NCCN(CC(=O)NCCC(N)=O)C(=O)C[C@@H](N)Cc1ccccc1)C(=O)C[C@@H](N)CCCNC(=N)N)C(=O)C[C@@H](N)CCCNC(=N)N
Kd (HIV-1 TAR RNA (18-44); fluorescence; 25 °C, added: 100-fold excess natural tRNA): 500 ± 100 nM

O=C1c2sc(-c3ccc(N4CCC(F)C4)nc3F)nc2CCN1c1cccnc1 (centres unmarked)
Kd (TAR DNA-binding protein 43, aggregated (TARDBP, Homo sapiens, UniProt Q13148); saturation autoradiography; FTLD-TDP type A brain sections): 25 ± 25 nM

CCCCCCCCCCCCCC(=O)Nc1ccccc1SSc1ccccc1NC(=O)CCCCCCCCCCCCC
Kd (ALB; binding, fluorescence quenching; pH 7.4, 298 K, added: warfarin (site I marker)): 2920 nM

COC(=O)CCCNC(=O)c1cc(S(N)(=O)=O)c(Cl)cc1NC1CCCCC1
Kd (CA12 (Homo sapiens, UniProt O43570); binding, ITC; pH 7): 56 nM

Cc1c2ccnc(C(=O)N[C@H](C)CN(C)C)c2cc2c3cc(OCCCN4CCN(C)CC4)ccc3n(C)c12
Kd (r(G4C2)8 RNA hairpin; binding, microscale thermophoresis; no K+): 560 ± 160 nM

Repeated from above:
O=C(Nc1cccc(-c2nn[nH]n2)c1)c1cc(-n2cccn2)cc(C(F)(F)F)c1
Kd (Beta-lactamase CTX-M-14; surface plasmon resonance; 25 °C): 19400 ± 300 nM

CC(=O)N[C@@H](CCCCN)C(=O)N[C@@H](CCCCN)C(=O)N[C@@H](CCCNC(=N)N)C(=O)N[C@@H](Cc1ccc(O)cc1)C(=O)N[C@@H](CO)C(=O)N[C@@H](CCCNC(=N)N)C(=O)N[C@@]1(C)CCCC=CCCC[C@@](C)(C(=O)N[C@@H](Cc2ccccc2)C(N)=O)NC(=O)[C@H](CC(C)C)NC(=O)[C@H](CC(C)C)NC(=O)[C@H](Cc2ccccc2)NC1=O
Kd (EIF4E (Homo sapiens, UniProt P06730); ligand displacement, FP; pH 7.4): 558 nM

O=C(Nc1cccc(-c2nn[nH]n2)c1)c1cc(-n2cnnn2)cc(C(F)(F)F)c1
Kd (Beta-lactamase CTX-M-14; surface plasmon resonance; 25 °C): 29800 ± 1200 nM

CC(C)C[C@H](NC(=O)[C@@H](NC(=O)[C@@H]1CCCN1C(=O)[C@@H]1CCCN1C(=O)[C@@H]1CCCN1C(=O)[C@H](CC(N)=O)NC(=O)[C@@H]1CCCN1C(=O)[C@H](C)NC(=O)[C@@H]1CCCN1C(=O)CNC(=O)[C@H](CCCCN)NC(=O)[C@@H](N)[C@@H](C)O)C(C)C)C(=O)N[C@@H](CCCCN)C(=O)N[C@H](C(=O)O)C(C)C
Kd (PACSIN1 SH3 domain, chicken; binding; pH 7): 51600 ± 7600 nM

CC(C)C[C@H](NC(=O)[C@H](CCCCN)NC(=O)[C@H](CCCCN)NC(=O)[C@H](C)NC(=O)[C@H](CCCCN)NC(=O)[C@H](CCCCN)NC(=O)[C@@H]1CCCN1C(=O)[C@@H](NC(=O)[C@H](CCCCN)NC(=O)[C@@H]1CCCN1)[C@@H](C)O)C(=O)O
Kd (Cyclin-dependent kinase 5, with p25 (CDK5, Homo sapiens, UniProt Q00535); substrate; 1.3 mM free Mg2+): 11000 ± 800 nM
